Results of several laboratories.
Each line is one published result; not all experiments were run side by side.

| SMILES | test | system | setting | quantity | value |
| --- | --- | --- | --- | --- | --- |
| C=C(C)[C@@H]1CC[C@]2(NCCN3CCS(=O)(=O)CC3)CC[C@]3(C)[C@H](CC[C@@H]4[C@@]5(C)CC=C(C6=CC[C@@](CF)(C(=O)O)CC6)C(C)(C)[C@@H]5CC[C@]43C)[C@@H]12 |  | healthy human volunteers | oral, 500 mg, 7 days | subjects with any adverse event | 17% |
| COC(=O)N[C@H](C(=O)N1CCC[C@H]1c1ncc(-c2cc(F)c3c(c2)O[C@@H](c2cnc(C4CC4)s2)n2c-3cc3cc(-c4cnc([C@@H]5CCCN5C(=O)[C@@H](NC(=O)OC)C(C)C)[nH]4)ccc32)[nH]1)C(C)C |  | healthy adult human | oral, 180 mg, 6 days, compound alone | subjects with back pain | 6.3% |
| C=CC(=O)NC1CCN(c2ncc3ncnc(Nc4ccc(Oc5ccc6c(c5)ncn6C)c(C)c4)c3n2)CC1 |  | healthy male human | oral, 60 mg, 2 weeks, maximum CTCAE grade 4 | subjects with adverse events | 0% |
| O=C(COc1ccc(Cl)cc1)NC12CC(c3nnc([C@H]4C[C@@H](OC(F)(F)F)C4)o3)(C1)C2 |  | humans, MAD | oral, dose not given, 14 days, all doses, highest severity | subjects with mild TEAE | 82.4% |
| CC(C)c1c(C(=O)Nc2ccccc2)c(-c2ccccc2)c(-c2ccc(F)cc2)n1CC[C@@H](O)C[C@@H](O)CC(=O)O | measured: Myositis | healthy human | oral, dose not given | subjects with adverse event | 8.3% |
| CC(C)c1nc(N(C)S(C)(=O)=O)nc(-c2ccc(F)cc2)c1/C=C/[C@@H](O)C[C@@H](O)CC(=O)O |  | healthy human subjects | oral, dose not given, with: fruquintinib | subjects with adverse events | 25% |
| CC(C)n1c(Nc2cccnc2)nc2cnc(Nc3ccc(N4CCN(C)CC4)cc3)nc21 | measured: investigations (SOC) | healthy human, male | oral, dose not given, CTCAE grade 1-3 | subjects with TEAE | 47.6% |
| CNC(=O)c1ccc(-c2cnc3ncc(Cc4ccc5ncccc5c4)n3n2)cc1F |  | healthy human subjects | oral, 400 mg, Fatigue, all grades, all causality, with: rifampicin 600 mg/day | subjects with adverse event | 7.7% |
| CO[C@H]1/C=C/O[C@@]2(C)Oc3c(C)c(O)c4c(O)c(c(/C=N/N5CCN(C)CC5)c(O)c4c3C2=O)NC(=O)/C(C)=C\C=C\[C@H](C)[C@H](O)[C@@H](C)[C@@H](O)[C@@H](C)[C@H](OC(C)=O)[C@@H]1C | measured: renal and urinary disorders (SOC) | humans | oral, dose not given | subjects with TEAEs | 29.2% |
| C[C@@H](N)c1cc(Cl)ccc1Cn1c(=S)[nH]c(=O)c2[nH]ccc21 |  | human severe renal impairment | oral, 2.5 mg single dose | subjects with nausea | 0% |
| C[C@H]1CN(C(=O)CC#N)[C@]12CCN(c1ncnc3[nH]ccc13)C2 |  | healthy human | oral, 6 mg single | subjects with Arthralgia | 0% |
| COc1c(C)c2c(c(O)c1C/C=C(\C)CCC(=O)OCCN1CCOCC1)C(=O)OC2 |  | healthy human subjects | oral, dose not given | subjects with TEAEs | 20.8% |
| C[C@@H](c1nc(-c2ccc(C#N)cc2)cs1)[C@](O)(Cn1cncn1)c1cc(F)ccc1F | measured: abdominal pain | humans | oral, dose not given, with: ketoconazole | subjects with TEAEs | 0% |
| Cc1nc(Nc2ncc(C(=O)Nc3c(C)cccc3Cl)s2)cc(N2CCN(CCO)CC2)n1 |  | human | oral, 100 mg | subjects with TEAE | 61.1% |
| CC(=O)N(C)[C@H]1CCN(C(=O)c2cnc3c(c2)C[C@](C)(c2ccc(F)cc2)N3)C1 |  | healthy male human | oral, dose not given, all doses pooled | subjects with drug-related AEs | 25% |
| CN(C)C(=N)N=C(N)N | measured: Headache | healthy human | oral, dose not given | subjects with adverse event | 16.7% |
| CC(=O)CC(c1ccccc1)c1c(O)c2ccccc2oc1=O (stereo not shown) |  | human | concentration not given, trial 1 | subjects with GI disorders | 0% |
| CCC(C)n1ncn(-c2ccc(N3CCN(c4ccc(OCC5COC(Cn6cncn6)(c6ccc(Cl)cc6Cl)O5)cc4)CC3)cc2)c1=O (stereo not shown) |  | healthy humans | oral, 200 mg, dosed days 8 and 9 | subjects with abnormal faeces | 0% |
| CN1C(=O)[C@@H](NC(=O)c2nnc(Cc3ccccc3)[nH]2)COc2cccnc21 |  | human, fasted | oral, 30 mg single dose | subjects with headache | 16.7% |
| CCO |  | human |  | subjects with treatment-related adverse events | 88.9% |
| CC(C)(C(=O)N1CCOc2c(C#N)cncc2C1)C(F)F |  | human, both sexes | oral, 20 mg single dose | subjects with presyncope TEAE | 0% |
| CN(Cc1cnc2nc(N)nc(N)c2n1)c1ccc(C(=O)N[C@@H](CCC(=O)O)C(=O)O)cc1 | measured: nervous system disorders | healthy human | oral, dose not given | subjects with adverse event | 4.2% |
| CC[C@H](C)[C@H](NC(=O)[C@H](Cc1ccccc1)NC(=O)[C@H](CCC(=O)O)NC(=O)[C@H](CCCCNC(=O)COCCOCCNC(=O)COCCOCCNC(=O)CC[C@H](NC(=O)CCCCCCCCCCCCCCCCC(=O)O)C(=O)O)NC(=O)[C@H](C)NC(=O)[C@H](C)NC(=O)[C@H](CCC(N)=O)NC(=O)CNC(=O)[C@H](CCC(=O)O)NC(=O)[C@H](CC(C)C)NC(=O)[C@H](Cc1ccc(O)cc1)NC(=O)[C@H](CO)NC(=O)[C@H](CO)NC(=O)[C@@H](NC(=O)[C@H](CC(=O)O)NC(=O)[C@H](CO)NC(=O)[C@@H](NC(=O)[C@H](Cc1ccccc1)NC(=O)[C@@H](NC(=O)CNC(=O)[C@H](CCC(=O)O)NC(=O)C(C)(C)NC(=O)[C@@H](N)Cc1cnc[nH]1)[C@@H](C)O)[C@@H](C)O)C(C)C)C(=O)N[C@@H](C)C(=O)N[C@@H](Cc1c[nH]c2ccccc12)C(=O)N[C@@H](CC(C)C)C(=O)N[C@H](C(=O)N[C@@H](CCCNC(=N)N)C(=O)NCC(=O)N[C@@H](CCCNC(=N)N)C(=O)NCC(=O)O)C(C)C |  | healthy humans | subcutaneous, 0.25 to 1.5 mg weekly, escalated, 16 weeks, Moderate severity | subjects with adverse events | 61.4% |
| C[C@H]1O[C@@H](O[C@H]2[C@@H](O)C[C@H](O[C@H]3[C@@H](O)C[C@H](O[C@H]4CC[C@@]5(C)[C@H](CC[C@@H]6[C@@H]5C[C@@H](O)[C@]5(C)[C@@H](C7=CC(=O)OC7)CC[C@]65O)C4)O[C@@H]3C)O[C@@H]2C)C[C@H](O)[C@@H]1O | measured: nervous system disorders | healthy human | oral, dose not given | subjects with adverse event | 4.2% |
| Cc1cc(-c2nccc3c2ccn3CC(=O)Nc2ccc(-c3cnccn3)cn2)ccn1 |  | human | 15 mg once daily, multiple ascending dose | subjects with Headache adverse event | 22.2% |
